Assay results from different studies.
“And” joins repeats or separate records; there may be more than shown. ± marks the error that the study gave.
Chymotrypsinogen A: Chymotrypsinogen A (Bos taurus, UniProt P00766)
Chain of UniProt Q92769 (whole entry, looked up): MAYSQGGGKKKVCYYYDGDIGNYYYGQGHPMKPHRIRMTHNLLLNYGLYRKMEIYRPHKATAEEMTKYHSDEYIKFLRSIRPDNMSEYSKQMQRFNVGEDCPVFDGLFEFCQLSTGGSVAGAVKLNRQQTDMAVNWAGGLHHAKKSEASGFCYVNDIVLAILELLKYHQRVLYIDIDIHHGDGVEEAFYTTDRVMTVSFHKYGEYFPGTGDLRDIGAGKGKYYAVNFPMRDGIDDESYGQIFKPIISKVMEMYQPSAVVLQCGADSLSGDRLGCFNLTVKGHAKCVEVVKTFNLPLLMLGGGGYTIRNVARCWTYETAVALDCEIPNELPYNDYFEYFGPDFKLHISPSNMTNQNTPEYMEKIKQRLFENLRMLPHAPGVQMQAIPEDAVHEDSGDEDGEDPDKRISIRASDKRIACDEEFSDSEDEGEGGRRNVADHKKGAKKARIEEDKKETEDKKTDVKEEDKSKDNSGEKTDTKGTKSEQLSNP
Chain of UniProt P47746 (whole entry, looked up): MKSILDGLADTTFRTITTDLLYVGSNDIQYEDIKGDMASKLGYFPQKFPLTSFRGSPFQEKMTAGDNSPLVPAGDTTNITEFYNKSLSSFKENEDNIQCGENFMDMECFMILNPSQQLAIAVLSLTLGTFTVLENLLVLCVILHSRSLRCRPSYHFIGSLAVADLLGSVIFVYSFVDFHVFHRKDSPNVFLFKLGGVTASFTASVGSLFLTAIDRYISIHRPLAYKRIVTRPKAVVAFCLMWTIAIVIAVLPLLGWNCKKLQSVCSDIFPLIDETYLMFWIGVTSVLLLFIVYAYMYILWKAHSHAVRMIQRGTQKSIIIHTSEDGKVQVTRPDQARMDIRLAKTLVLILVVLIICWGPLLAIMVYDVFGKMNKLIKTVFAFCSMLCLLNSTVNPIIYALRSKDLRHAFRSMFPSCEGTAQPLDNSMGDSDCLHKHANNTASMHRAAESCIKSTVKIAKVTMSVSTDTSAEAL
Chain of UniProt P05067 (whole entry, looked up): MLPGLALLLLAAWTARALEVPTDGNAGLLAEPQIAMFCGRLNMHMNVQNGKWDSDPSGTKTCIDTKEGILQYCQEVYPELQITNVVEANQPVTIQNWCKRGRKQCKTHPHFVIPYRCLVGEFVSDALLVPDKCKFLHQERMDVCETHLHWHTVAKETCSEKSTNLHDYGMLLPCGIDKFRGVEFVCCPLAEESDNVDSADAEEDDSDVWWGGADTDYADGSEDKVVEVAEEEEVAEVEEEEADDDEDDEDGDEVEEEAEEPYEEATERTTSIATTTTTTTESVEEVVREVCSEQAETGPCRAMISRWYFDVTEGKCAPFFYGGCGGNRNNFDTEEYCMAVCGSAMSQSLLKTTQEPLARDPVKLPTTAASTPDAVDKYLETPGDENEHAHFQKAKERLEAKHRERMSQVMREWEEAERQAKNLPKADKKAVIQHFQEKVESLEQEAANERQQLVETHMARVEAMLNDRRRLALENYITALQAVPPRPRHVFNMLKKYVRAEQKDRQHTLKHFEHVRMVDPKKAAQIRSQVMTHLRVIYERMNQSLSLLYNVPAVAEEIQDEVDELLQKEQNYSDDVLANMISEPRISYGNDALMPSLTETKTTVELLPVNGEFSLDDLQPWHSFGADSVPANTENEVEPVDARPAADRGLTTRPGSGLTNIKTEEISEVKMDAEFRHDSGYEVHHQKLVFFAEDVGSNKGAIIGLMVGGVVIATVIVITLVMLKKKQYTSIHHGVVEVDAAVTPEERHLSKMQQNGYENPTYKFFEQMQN
Chain of UniProt P35368 (whole entry, looked up): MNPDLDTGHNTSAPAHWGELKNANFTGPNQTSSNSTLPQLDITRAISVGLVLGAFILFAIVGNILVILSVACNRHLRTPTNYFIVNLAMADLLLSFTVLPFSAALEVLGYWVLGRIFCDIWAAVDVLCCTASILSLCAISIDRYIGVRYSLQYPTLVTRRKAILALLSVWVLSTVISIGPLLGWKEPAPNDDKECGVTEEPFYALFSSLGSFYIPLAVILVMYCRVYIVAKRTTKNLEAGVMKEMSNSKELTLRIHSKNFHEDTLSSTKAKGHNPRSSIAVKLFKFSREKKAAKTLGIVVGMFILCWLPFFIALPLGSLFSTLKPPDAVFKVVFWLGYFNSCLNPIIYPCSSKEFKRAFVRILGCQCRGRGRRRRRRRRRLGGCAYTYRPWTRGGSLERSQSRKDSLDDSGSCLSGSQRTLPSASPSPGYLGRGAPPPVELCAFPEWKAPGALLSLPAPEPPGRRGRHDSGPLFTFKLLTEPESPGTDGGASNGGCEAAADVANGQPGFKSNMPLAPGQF

`Cn1ccc2c(N3CCN(CCCCOc4ccc5c(c4)NC(=O)CC5)CC3)cccc21` has a Ki of 1.08 µM (ADRA1B (Homo sapiens, UniProt P35368); ligand displacement, radioligand).
The Ki of `COC(=O)c1ccc(/N=N/c2cccc([B-](F)(F)F)c2)cc1` is reported as 1220 µM (Chymotrypsinogen A; enzyme activity, inhibitor; pH 7.81, 25 °C, cis-enriched photostationary state, with: Suc-AAPF-AMC).
For `CCC1(CC)CC(=O)N(C2CCOc3ccc(C(=O)NC4CC(C)(C)Oc5ccccc54)cc32)C(=N)N1` (centres unmarked), the Ki was 1.1e-05 ± 2e-06 µM (Plasmepsin X (Plasmodium vivax, UniProt A5KAC3); enzyme activity, inhibitor, peptide cleavage).
`F[B-](F)(F)c1ccccc1/N=N/c1ccccc1` has a Ki of 29.2 µM (Chymotrypsinogen A; enzyme activity, competitive inhibitor; buffer with 2 vol% DMSO; pH 7.81, 25 °C, thermally adapted trans state, with: Suc-AAPF-AMC).
The Ki of `COc1cc2c(cc1OC)-c1cc3ccc(OC)c(OC)c3c[n+]1CC2.[Cl][Fe-]([Cl])([Cl])[Cl]` is reported as 180 µM (lipase; inhibitor).
`CCOC(=O)[C@](CC)(CCCSCCOCCOCCN)NC(=O)c1ccc(C2CC2)c(Cc2ccc(F)cc2)n1` gave a Ki of 0.229 µM (Cnr1 (Mus musculus, UniProt P47746); ligand displacement, radioligand; cell membranes).
`CC(=O)OCC1=C2C(C)=CC(C)=[N+]2[B-](C)(C)n2c(C)cc(C)c21` has a Ki of 1800 ± 400000 µM (Cathepsin B (CTSB, Homo sapiens, UniProt P07858); enzyme activity, irreversible inhibitor; pH 5.5, 25 °C, irradiated 395-750 nm, 15 min, with: Z-Arg-Arg-AMC).
For `O=C(/C=C/c1cccc(OS(=O)(=O)Oc2ccc(Br)cc2)c1)NO`, the Ki was 0.047 µM (HDAC2 (Homo sapiens, UniProt Q92769); enzyme activity, inhibitor, fluorescence).
For `OB(O)c1cnn(-c2cc(Cl)ncn2)c1`, the Ki was 99 µM (Chymotrypsinogen A; enzyme activity, inhibitor, absorbance).
The Ki of `Cc1ccc([B-](F)(F)F)cc1/N=N/c1ccccc1` is reported as 5.8 µM and 5.84 µM (Chymotrypsinogen A; enzyme activity, competitive inhibitor; buffer with 2 vol% DMSO; pH 7.81, 25 °C, thermally adapted trans state, with: Suc-AAPF-AMC).
The Ki of `c1cc2nc(c1)CSCc1cc(-c3nc4ccccc4s3)cc(n1)CSC2` is reported as 1.11 ± 0.72 µM (Amyloid-beta precursor protein, Aβ42 fibrils (APP, Homo sapiens, UniProt P05067); amyloid-beta 42 binding, thioflavin T competition; pH 7.4).

Repeated from above:
For `OB(O)c1cnn(-c2cc(Cl)ncn2)c1`, the Ki was 99 µM (Chymotrypsinogen A; enzyme activity, inhibitor, absorbance).
